{"data": "Values quoted from earlier work, collected from citations in different studies", "note": "Lines come from different studies, so protocols differ. ± gives the spread as reported.", "chain of UniProt P19784 (whole entry, looked up)": "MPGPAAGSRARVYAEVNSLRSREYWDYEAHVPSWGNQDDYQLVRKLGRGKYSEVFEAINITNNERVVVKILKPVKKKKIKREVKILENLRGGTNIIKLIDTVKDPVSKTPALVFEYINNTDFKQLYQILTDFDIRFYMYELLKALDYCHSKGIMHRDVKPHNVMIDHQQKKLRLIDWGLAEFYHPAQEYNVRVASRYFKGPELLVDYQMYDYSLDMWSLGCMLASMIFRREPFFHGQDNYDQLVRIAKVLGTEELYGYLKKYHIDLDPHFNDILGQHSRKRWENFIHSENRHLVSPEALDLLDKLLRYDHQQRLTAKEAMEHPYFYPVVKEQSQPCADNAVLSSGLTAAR", "chain of UniProt O96028 (whole entry, looked up)": "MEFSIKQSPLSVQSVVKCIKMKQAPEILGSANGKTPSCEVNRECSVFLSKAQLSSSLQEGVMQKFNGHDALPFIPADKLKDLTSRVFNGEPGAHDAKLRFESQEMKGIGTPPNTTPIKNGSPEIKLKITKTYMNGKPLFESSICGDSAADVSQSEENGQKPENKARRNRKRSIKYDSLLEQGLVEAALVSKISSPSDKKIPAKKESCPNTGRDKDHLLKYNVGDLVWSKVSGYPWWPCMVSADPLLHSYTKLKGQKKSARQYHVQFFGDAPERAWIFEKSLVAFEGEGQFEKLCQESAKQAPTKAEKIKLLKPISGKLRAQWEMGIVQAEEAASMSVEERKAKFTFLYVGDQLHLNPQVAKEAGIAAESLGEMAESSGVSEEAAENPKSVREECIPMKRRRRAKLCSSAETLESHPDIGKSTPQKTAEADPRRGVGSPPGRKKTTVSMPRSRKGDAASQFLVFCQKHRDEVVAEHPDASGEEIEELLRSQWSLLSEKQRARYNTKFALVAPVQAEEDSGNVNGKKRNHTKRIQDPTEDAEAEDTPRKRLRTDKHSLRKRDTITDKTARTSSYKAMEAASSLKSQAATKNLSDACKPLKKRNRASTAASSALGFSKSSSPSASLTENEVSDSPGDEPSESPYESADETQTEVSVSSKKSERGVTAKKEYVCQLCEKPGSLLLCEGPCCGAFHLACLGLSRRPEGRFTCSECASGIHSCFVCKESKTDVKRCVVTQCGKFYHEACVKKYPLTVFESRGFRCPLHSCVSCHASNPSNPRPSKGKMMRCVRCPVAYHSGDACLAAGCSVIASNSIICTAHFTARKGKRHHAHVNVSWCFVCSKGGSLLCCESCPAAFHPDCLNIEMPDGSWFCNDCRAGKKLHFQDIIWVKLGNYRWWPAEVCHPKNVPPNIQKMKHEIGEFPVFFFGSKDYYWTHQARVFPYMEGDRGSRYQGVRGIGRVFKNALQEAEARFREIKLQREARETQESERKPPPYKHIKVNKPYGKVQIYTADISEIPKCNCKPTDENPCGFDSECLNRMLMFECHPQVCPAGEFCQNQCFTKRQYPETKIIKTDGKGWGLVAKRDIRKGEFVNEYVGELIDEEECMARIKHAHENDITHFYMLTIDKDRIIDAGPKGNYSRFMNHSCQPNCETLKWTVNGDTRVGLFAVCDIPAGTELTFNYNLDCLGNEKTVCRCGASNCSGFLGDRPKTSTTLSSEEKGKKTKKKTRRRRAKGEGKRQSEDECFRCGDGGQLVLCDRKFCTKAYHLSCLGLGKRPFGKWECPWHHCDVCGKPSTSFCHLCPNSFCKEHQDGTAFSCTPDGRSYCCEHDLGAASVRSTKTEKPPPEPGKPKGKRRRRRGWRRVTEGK", "chain of UniProt P28335 (whole entry, looked up)": "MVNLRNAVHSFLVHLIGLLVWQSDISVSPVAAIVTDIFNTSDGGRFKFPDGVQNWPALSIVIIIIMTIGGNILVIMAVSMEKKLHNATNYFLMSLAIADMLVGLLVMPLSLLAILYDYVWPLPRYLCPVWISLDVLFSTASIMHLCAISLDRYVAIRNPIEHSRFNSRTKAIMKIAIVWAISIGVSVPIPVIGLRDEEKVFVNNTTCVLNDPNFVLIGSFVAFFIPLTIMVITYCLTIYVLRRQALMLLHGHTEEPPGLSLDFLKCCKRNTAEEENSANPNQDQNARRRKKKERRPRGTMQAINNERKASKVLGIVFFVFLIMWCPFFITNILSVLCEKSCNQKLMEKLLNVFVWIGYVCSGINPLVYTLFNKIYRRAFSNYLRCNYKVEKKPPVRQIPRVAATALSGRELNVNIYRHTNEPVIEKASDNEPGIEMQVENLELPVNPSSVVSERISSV"}
{"Structure (SMILES)": "Cc1[nH]c(C)c(-c2ccc(OCc3cc(C(F)(F)F)cc(C(F)(F)F)c3)nc2)c(=O)c1Cl", "tested on": "Plasmodium falciparum", "test": "whole cell extended time", "test system": "3D7", "setting": "72 h", "endpoint": "IC50", "value": "110 nM"}
{"Structure (SMILES)": "Cc1cc(NC(=O)c2cccc(NC(=O)/C=C/CN(C)C)c2)ccc1Nc1nccc(-c2cccnc2)n1", "tested on": "Casein kinase II subunit alpha' (CSNK2A2, Homo sapiens, UniProt P19784)", "test": "enzyme activity, inhibitor", "setting": "1 µM", "scale": "reference: vehicle", "endpoint": "remaining activity", "value": "39%"}
{"Structure (SMILES)": "Nc1cccc2c1C(=O)N(C1CCC(=O)NC1=O)C2=O (stereo not shown)", "test system": "relapsed refractory multiple myeloma patients", "setting": "dose not given, trial", "endpoint": "minimal response or better rate", "value": "29%"}
{"Structure (SMILES)": "CNC(=O)[C@@]12C[C@@H]1[C@@H](n1cnc3c(NCc4cccc(Cl)c4)nc(C#Cc4ccc(F)c(F)c4)nc31)[C@H](O)[C@@H]2O", "tested on": "5-hydroxytryptamine receptor 2C (HTR2C, Homo sapiens, UniProt P28335)", "test": "radioligand binding (PDSP)", "endpoint": "Ki", "value": "1000 to 10000 nM"}
{"Structure (SMILES)": "COc1cccc2c(NN=Cc3cccc(F)c3)ccnc12", "tested on": "Plasmodium falciparum", "test": "whole cell extended time", "test system": "3D7", "setting": "72 h", "endpoint": "IC50", "value": "930 nM"}
{"Structure (SMILES)": "C[C@H]1COCCN1c1nc(-c2cnc(N)cc2C(F)F)nc(N2CCOCC2)n1", "tested on": "SHP77", "endpoint": "GI50", "value": "2120 nM"}
{"Structure (SMILES)": "CCN(c1cc(-c2ccc(CN3CCOCC3)cc2)cc(C(=O)NCc2c(C)cc(C)[nH]c2=O)c1C)C1CCOCC1", "tested on": "Histone-lysine N-methyltransferase NSD2 (NSD2, Homo sapiens, UniProt O96028)", "test": "enzyme activity, inhibitor", "setting": "1 µM", "endpoint": "inhibition", "value": "8 ± 3%"}
{"Structure (SMILES)": "CCC(=O)O[C@]1(C(=O)SCF)[C@H](C)C[C@H]2[C@@H]3C[C@H](F)C4=CC(=O)C=C[C@]4(C)[C@@]3(F)[C@@H](O)C[C@@]21C", "tested on": "Glucocorticoid receptor (Nr3c1, Rattus norvegicus, UniProt P06536)", "test system": "rat, spleen", "setting": "intravenous, 90 nmol/kg, 0.5097 (unit not given)", "endpoint": "receptor occupancy", "value": "88.8%"}
{"Structure (SMILES)": "COc1ccccc1Oc1cccc(CN2CCC(NC(=O)C3CC(=O)Nc4ccccc43)CC2)c1 (stereo not shown)", "tested on": "human CCR8 L168D mutant (TM4)", "test": "IP accumulation, agonist", "endpoint": "EC50", "value": "93 nM"}
{"Structure (SMILES)": "O=C(Nc1nc2ccccc2[nH]1)c1ccccc1", "tested on": "caspase-3", "setting": "12.5 µM, PubChem AID 488918", "endpoint": "response", "value": "96%"}
{"Structure (SMILES)": "CNCc1cc(-c2ccccc2F)n(S(=O)(=O)c2cccnc2)c1", "test system": "human, plasma", "setting": "10 mg multiple dose, observed clinical data", "endpoint": "Cmax", "value": "11.6 ng/mL"}
{"Structure (SMILES)": "CCCCCCCc1ccc(-c2c(C)[nH]c(C)c(Cl)c2=O)cn1", "tested on": "Plasmodium falciparum", "test": "whole cell extended time", "test system": "3D7", "setting": "72 h", "endpoint": "IC50", "value": "360 nM"}
{"Structure (SMILES)": "Nc1cc(C(F)(F)F)c(-c2nc(N3CCOCC3)nc(N3CCOCC3)n2)cn1", "tested on": "786-O", "endpoint": "GI50", "value": "2080 nM"}
{"Structure (SMILES)": "CC(C)C[C@@H]1NC(=O)[C@H](CC(=O)O)NC(=O)CNC(=O)[C@H](CCCNC(=N)N)NC(=O)[C@H](Cc2ccc(O)cc2)NC(=O)[C@H](CCCCNC(=O)CCc2cn(CCCNC(=O)CCP(=O)(O)CN3CCN(CP(=O)(O)CCC(=O)NCCCn4cc(CCC(=O)NCCCC[C@H]5C(=O)N[C@@H](Cc6ccc(O)cc6)C(=O)N[C@@H](CCCNC(=N)N)C(=O)NCC(=O)N[C@@H](CC(=O)O)C(=O)N[C@@H](CC(C)C)C(=O)N[C@@H](C)C(=O)N[C@@H](Cc6ccc(O)cc6)C(=O)N6CCC[C@@H]6C(=O)N5C)nn4)CCN(CP(=O)(O)CCC(=O)NCCCn4cc(CCC(=O)NCCCC[C@H]5C(=O)N[C@@H](Cc6ccc(O)cc6)C(=O)N[C@@H](CCCNC(=N)N)C(=O)NCC(=O)N[C@@H](CC(=O)O)C(=O)N[C@@H](CC(C)C)C(=O)N[C@@H](C)C(=O)N[C@@H](Cc6ccc(O)cc6)C(=O)N6CCC[C@@H]6C(=O)N5C)nn4)CC3)nn2)N(C)C(=O)[C@H]2CCCN2C(=O)[C@H](Cc2ccc(O)cc2)NC(=O)[C@H](C)NC1=O [gallium-68 labelled]", "test system": "SCID mice with MDA-MB-231 tumour, kidney", "setting": "90 min", "endpoint": "tissue uptake", "value": "70.6 ± 20 %ID/g"}
{"Structure (SMILES)": "COc1ccccc1Oc1cccc(CN2CCC(NC(=O)C(CCN3CCCC3)c3ccccc3)CC2)c1 (stereo not shown)", "tested on": "human CCR8 S110W mutant (TM3)", "test": "IP accumulation, agonist", "endpoint": "EC50", "value": "> 10000 nM"}
{"Structure (SMILES)": "CCCCN1CC[C@@H](CCC(O)c2cc(OCCC)nc3ccc(OC)cc23)[C@@H](CC)C1 (stereo partly shown)", "tested on": "Plasmodium falciparum", "test": "whole cell extended time", "test system": "3D7", "setting": "72 h", "endpoint": "IC50", "value": "360 nM"}
{"Structure (SMILES)": "COc1ccccc1Oc1cccc(CN2CCC3(CC2)C(=O)NCN3CCc2ccccc2)c1", "tested on": "human CCR8 K193A mutant (TM5)", "test": "IP accumulation, agonist", "endpoint": "EC50", "value": "8.5 nM"}
{"Structure (SMILES)": "CCOC(=O)c1c(-c2ccccc2)nc2c(sc3ccccc32)c1O", "tested on": "Plasmodium falciparum", "test": "whole cell extended time", "test system": "3D7", "setting": "72 h", "endpoint": "IC50", "value": "370 nM"}
{"Structure (SMILES)": "CC1(C)S[C@@H]2[C@H](NC(=O)[C@H](N)c3ccccc3)C(=O)N2[C@H]1C(=O)O", "tested on": "Pseudomonas aeruginosa", "test system": "clinical isolate RKI-No_216/16", "endpoint": "MIC", "value": "> 16 µg/mL"}
{"Structure (SMILES)": "CCNS(=O)(=O)c1ccc(OC)cc1C1(O)CCN(Cc2cccc(Oc3ccccc3OC)c2)CC1", "tested on": "human CCR8 S110W mutant (TM3)", "test": "IP accumulation, agonist", "endpoint": "EC50", "value": "> 10000 nM"}
{"Structure (SMILES)": "CNC(C)C1CCC(N)C(OC2C(N)CC(N)C(OC3OCC(C)(O)C(NC)C3O)C2O)O1 (stereo not shown)", "tested on": "Pseudomonas aeruginosa", "test system": "clinical isolate RKI-No_393/11", "endpoint": "MIC", "value": "> 8 µg/mL"}
{"Structure (SMILES)": "COc1ccccc1Oc1cccc(CN2CCC(O)(c3ccccc3C(=O)O)CC2)c1", "tested on": "human CCR8 G206W mutant (TM5)", "test": "IP accumulation, agonist", "endpoint": "EC50", "value": "20 nM"}
{"note": "Some of these lines once more:"}
{"Structure (SMILES)": "CCCCN1CC[C@@H](CCC(O)c2cc(OCCC)nc3ccc(OC)cc23)[C@@H](CC)C1 (stereo partly shown)", "tested on": "Plasmodium falciparum", "test": "whole cell extended time", "test system": "3D7", "setting": "72 h", "endpoint": "IC50", "value": "360 nM"}
